Assay results gathered from unrelated publications.
Parts stem from different laboratories: compare values within a part only. Changes are numbered by the printed parent chain.
UniProt O14578, sequence (whole entry, looked up): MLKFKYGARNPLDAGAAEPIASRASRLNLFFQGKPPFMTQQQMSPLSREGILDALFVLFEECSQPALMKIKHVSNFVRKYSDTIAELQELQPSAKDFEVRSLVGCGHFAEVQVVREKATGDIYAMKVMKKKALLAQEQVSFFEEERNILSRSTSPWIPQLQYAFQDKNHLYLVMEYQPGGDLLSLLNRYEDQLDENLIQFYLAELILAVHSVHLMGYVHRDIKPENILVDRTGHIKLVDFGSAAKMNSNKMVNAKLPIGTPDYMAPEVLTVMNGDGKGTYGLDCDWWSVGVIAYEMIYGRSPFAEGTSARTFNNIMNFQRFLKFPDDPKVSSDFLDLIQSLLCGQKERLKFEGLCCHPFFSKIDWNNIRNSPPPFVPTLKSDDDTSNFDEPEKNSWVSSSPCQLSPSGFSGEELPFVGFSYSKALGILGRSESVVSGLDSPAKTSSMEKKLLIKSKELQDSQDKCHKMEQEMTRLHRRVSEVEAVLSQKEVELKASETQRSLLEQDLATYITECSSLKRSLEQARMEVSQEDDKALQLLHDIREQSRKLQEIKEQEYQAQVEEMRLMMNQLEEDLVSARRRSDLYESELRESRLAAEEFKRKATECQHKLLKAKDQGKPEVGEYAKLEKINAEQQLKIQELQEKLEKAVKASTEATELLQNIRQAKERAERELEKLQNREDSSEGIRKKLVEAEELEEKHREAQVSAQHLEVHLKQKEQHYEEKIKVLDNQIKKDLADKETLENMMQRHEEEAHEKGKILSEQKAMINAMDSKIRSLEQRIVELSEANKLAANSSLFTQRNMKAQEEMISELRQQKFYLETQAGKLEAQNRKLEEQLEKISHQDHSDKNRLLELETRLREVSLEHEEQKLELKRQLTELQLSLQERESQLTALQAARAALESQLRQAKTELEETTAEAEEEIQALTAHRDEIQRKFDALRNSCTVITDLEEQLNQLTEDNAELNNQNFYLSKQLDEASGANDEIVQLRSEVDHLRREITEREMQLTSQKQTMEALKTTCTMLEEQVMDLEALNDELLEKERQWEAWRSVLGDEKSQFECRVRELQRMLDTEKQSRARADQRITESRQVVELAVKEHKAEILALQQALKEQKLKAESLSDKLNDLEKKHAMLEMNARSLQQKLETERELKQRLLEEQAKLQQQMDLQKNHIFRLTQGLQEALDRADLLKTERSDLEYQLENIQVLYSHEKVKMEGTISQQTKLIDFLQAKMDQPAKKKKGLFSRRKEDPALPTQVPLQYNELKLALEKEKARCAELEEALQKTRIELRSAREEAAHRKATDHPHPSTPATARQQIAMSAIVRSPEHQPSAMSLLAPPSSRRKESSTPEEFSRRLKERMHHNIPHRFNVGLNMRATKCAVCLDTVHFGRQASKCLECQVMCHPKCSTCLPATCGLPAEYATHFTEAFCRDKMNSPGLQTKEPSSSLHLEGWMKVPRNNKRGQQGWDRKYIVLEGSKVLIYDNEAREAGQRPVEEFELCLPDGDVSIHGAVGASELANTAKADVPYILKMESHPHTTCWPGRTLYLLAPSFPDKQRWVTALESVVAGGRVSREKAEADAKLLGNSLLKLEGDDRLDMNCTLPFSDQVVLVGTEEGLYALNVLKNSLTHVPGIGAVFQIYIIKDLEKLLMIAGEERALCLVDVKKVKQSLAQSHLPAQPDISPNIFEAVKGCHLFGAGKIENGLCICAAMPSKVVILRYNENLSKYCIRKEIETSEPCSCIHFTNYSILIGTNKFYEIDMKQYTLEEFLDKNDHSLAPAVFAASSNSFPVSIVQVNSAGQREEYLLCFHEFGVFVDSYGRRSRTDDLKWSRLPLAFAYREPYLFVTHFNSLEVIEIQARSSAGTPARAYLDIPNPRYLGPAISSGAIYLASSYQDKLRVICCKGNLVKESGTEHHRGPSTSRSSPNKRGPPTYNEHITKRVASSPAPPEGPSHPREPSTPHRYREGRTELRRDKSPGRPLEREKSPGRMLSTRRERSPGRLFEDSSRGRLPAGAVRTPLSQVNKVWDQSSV
UniProt Q7L7X3, sequence (whole entry, looked up): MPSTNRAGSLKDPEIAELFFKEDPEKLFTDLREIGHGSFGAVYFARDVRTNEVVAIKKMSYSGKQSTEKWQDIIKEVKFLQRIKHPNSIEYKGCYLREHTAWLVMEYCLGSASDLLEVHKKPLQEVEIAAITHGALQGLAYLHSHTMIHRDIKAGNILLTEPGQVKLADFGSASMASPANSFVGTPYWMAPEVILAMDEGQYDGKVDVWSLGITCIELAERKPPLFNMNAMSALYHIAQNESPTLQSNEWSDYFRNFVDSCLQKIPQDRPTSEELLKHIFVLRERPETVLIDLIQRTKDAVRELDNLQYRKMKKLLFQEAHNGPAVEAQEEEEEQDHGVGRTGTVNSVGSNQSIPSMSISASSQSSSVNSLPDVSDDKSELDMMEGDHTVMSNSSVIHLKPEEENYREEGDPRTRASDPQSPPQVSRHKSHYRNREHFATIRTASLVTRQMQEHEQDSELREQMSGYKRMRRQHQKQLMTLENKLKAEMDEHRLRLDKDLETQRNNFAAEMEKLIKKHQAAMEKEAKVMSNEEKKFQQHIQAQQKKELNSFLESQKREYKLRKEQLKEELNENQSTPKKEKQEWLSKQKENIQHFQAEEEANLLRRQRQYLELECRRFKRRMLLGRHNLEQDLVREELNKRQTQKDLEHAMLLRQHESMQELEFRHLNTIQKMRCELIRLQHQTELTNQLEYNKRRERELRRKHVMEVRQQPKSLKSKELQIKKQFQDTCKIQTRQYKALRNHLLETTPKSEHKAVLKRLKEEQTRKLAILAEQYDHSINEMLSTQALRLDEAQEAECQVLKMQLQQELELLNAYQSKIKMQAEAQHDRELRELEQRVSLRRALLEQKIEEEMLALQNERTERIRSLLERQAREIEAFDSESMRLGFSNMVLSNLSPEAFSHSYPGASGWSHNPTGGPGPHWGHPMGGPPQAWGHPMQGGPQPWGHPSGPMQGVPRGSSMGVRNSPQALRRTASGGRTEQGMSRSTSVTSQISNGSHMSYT
UniProt Q8NG66, sequence (whole entry, looked up): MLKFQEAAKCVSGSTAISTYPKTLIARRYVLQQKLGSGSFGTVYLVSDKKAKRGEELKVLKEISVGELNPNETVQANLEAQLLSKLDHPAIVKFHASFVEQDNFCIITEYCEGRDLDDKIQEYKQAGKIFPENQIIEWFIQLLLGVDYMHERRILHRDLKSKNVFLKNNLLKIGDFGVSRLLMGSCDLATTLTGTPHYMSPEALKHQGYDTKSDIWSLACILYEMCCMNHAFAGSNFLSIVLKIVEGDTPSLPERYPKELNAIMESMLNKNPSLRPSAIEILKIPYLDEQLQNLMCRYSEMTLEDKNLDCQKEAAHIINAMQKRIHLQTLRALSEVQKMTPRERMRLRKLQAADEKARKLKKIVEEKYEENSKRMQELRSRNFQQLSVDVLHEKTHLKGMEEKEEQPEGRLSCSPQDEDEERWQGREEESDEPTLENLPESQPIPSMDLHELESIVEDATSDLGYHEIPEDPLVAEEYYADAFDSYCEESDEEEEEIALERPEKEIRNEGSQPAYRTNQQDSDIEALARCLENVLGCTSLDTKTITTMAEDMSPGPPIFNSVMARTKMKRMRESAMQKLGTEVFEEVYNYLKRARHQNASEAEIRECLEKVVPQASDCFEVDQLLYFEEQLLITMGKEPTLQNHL
UniProt Q00532, sequence (whole entry, looked up): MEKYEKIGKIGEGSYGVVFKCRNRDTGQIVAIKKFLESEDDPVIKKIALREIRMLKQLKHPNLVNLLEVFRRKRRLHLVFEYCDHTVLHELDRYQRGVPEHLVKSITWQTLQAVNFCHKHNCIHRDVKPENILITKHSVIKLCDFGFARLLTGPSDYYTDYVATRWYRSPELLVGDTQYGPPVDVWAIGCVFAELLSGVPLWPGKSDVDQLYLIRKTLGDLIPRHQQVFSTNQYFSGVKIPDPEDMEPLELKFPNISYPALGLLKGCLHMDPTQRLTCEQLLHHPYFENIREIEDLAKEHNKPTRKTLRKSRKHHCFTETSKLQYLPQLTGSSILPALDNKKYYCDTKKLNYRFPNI

Sample 1
Target: Histone acetyltransferase KAT6A, winged helix 1, GST fusion (KAT6A, Homo sapiens, UniProt Q92794, residues 1-85)
Technique: protein binding microarray
Form: double-stranded DNA, one strand shown
Medium: in vitro
Tested at: not given
Setting: 8-mer, flanks averaged, mean of 2 arrays, mostly near background
Relative to: not given
Reading: higher = stronger binding
Construct (chain): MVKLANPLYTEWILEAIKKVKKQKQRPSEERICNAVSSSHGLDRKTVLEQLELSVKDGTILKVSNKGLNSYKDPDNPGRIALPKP
Sequence | E-score
CCAGGCAA | -0.0814
ATTTAGGA | -0.218
AATTGTTG | -0.251
ATTCCTAA | -0.147
ACGCGGCG | 0.438
TAGCACCA | -0.194
TCTGTCAA | -0.241
CAGTAAAA | -0.155

Sample 2
Target: JDP2, bZIP domain (human)
Technique: DHFR protein complementation
Medium: yeast
Setting: single substitutions, most at no-binding floor
Relative to: wild-type JUN-FOS pair
Reading: higher = stronger binding
Starting sequence: JUN, bZIP domain (human); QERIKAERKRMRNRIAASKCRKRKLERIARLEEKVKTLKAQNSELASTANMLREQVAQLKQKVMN; partner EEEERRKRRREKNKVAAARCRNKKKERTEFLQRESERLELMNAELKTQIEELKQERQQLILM
Substitution | binding fitness
A46W | 0.222 natural log
L45D | -0.0333 natural log
L52E | -0.111 natural log
S43N | 0.306 natural log
L38K | -0.0104 natural log
A40D | 0.335 natural log
V35K | -0.142 natural log
Q55V | 0.191 natural log

Sample 3
Compound: O=C(Nc1cccnn1)N1CCC(=Cc2cccc(Oc3ccc(C(F)(F)F)cn3)c2)CC1
Effect on: cell-free assay
Technique: competition with immobilised ligand
Tested at: 1 µM
target | remaining binding
KIT (Homo sapiens, UniProt P10721, V559D/V654A) | 100%
Tyrosine-protein kinase ABL1, non-phosphorylated (ABL1, Homo sapiens, UniProt P00519, H396P) | 86%
NTRK2 (Homo sapiens, UniProt Q16620) | 100%
RIPK1 (Homo sapiens, UniProt Q13546) | 97%
CIT (Homo sapiens, UniProt O14578) | 79%
TNK2 (Homo sapiens, UniProt Q07912) | 100%
MET (Homo sapiens, UniProt P08581) | 100%
CDKL1 (Homo sapiens, UniProt Q00532) | 86%
MAP2K2 (Homo sapiens, UniProt P36507) | 100%
NLK (Homo sapiens, UniProt Q9UBE8) | 100%
NEK11 (Homo sapiens, UniProt Q8NG66) | 100%
TAOK1 (Homo sapiens, UniProt Q7L7X3) | 100%
SGK3 (Homo sapiens, UniProt Q96BR1) | 93%
Ribosomal protein S6 kinase alpha-4, C-terminal kinase domain (RPS6KA4, Homo sapiens, UniProt O75676) | 100%

Sample 4
Target: Fibroblast growth factor receptor 4 (FGFR4, Homo sapiens, UniProt P22455)
UniProt P22455, sequence (whole entry, looked up): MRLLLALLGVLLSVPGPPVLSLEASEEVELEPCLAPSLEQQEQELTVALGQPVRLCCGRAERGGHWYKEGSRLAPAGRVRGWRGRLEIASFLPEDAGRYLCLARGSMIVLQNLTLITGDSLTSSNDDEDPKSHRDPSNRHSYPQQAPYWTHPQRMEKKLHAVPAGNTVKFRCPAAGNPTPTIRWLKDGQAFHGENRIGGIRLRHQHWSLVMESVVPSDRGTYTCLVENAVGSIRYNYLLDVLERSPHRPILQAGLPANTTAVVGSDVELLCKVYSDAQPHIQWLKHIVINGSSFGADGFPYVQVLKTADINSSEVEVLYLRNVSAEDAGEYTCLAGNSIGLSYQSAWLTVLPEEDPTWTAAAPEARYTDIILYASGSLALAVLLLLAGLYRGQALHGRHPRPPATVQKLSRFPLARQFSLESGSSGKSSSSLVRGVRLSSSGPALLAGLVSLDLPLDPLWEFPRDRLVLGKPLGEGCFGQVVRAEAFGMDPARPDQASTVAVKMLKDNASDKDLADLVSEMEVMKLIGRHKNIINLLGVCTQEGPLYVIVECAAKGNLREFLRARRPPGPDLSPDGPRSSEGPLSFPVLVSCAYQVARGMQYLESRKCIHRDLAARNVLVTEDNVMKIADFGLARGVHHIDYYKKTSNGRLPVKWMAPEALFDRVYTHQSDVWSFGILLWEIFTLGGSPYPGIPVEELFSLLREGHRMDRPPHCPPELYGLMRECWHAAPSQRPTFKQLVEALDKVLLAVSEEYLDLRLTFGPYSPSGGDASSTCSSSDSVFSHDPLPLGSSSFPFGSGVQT
Effect on: enzyme activity
Mode: inhibitor
Tested at: 0.5 µM
Relative to: control
SMILES | remaining activity [%]
CCOC(=O)c1c(C)[nH]c(/C=C2\C(=O)Nc3ccccc32)c1C | 82.4
Cc1cccc(-c2[nH]c(C(C)(C)C)nc2-c2ccc3c(c2)OCO3)n1 | 73.8
COc1cc2ncnc(Nc3ccc(Oc4ccccc4)cc3)c2cc1OC | 77.8
CN(C)c1ccc(C=C2C(=O)Nc3ccccc32)cc1 | 97.4
O=c1c2ccccc2[nH]c(=S)n1CCN1CCC(=C(c2ccc(F)cc2)c2ccc(F)cc2)CC1 | 105
OCC(O)CCON=C1C(c2c(O)[nH]c3ccccc23)=Nc2ccccc21 (centres unmarked) | 65.7
COc1cc2nccc(Oc3ccc(NC(=S)NC(=O)c4ccccc4C)cc3)c2cc1OC | 92.9
COc1cc2ncnc(Nc3ccc(F)c(Cl)c3)c2cc1OCCCN1CCOCC1 | 92.4
Nc1ncnc2n[nH]c(Nc3ccc(F)cc3)c12 | 107
O=C(Nc1cccc(Nc2cc(Nc3cccc(C(F)(F)F)c3)ncn2)c1)C1CC1 | 102
CO[C@H]1C[C@@H]2CC[C@@H](C)[C@@](O)(O2)C(=O)C(=O)N2CCCC[C@H]2C(=O)O[C@H]([C@H](C)C[C@@H]2CC[C@@H](O)[C@H](OC)C2)CC(=O)[C@H](C)/C=C(\C)[C@@H](O)[C@@H](OC)C(=O)[C@H](C)C[C@H](C)/C=C/C=C/C=C/1C | 76.6
O=S(=O)(c1cccc2cnccc12)N1CCCNCC1 | 82.8
O=C(O)c1ccc2c3c1cccc3c(=O)n1c3ccccc3nc21 | 88.6
O=C(CCCc1ccc(-c2ccccc2F)cc1)Nc1ccc(O)cc1 | 106

For quick reference, copied from above (sample 2):
Substitution | binding fitness
L45D | -0.0333 natural log
A40D | 0.335 natural log
L52E | -0.111 natural log
V35K | -0.142 natural log
Q55V | 0.191 natural log
L38K | -0.0104 natural log
S43N | 0.306 natural log
